# Measurements from different studies.
# “And” joins repeats or separate records; there may be more than shown.
SMILES,cell line,effect on,method,tested at,time,viability
COc1cc(N2CCN(C(=O)C3CCCN3)CC2)ccc1Nc1ncc(Cl)c(Nc2ccccc2P(C)(C)=O)n1 (stereo not drawn),Ba/F3 EML4-ALK,cell growth or viability,CCK-8,1 µM,24 h,5% and 6%
"O=C(C=Cc1ccccc1)OC1C=CC(O)C(O)(COC(=O)c2ccccc2)C1O (single isomer, unassigned; (-))",SW480,cell growth or viability,MTT,100 µg/mL,,83.4%
[BH3-][P+]1(c2ccccc2)CCCCC1,SW480,,trypan blue,IC50,72 h,96%
O=C(OC[C@@]1(O)C(=O)C=C[C@H]2[C@@H]1[C@H]1C=C[C@@H]2C(=O)[C@]1(O)COC(=O)c1ccccc1)c1ccccc1,SW480,cell growth or viability,MTT,6.25 µg/mL,,89.3%
COc1ccc(Cn2cc(CCO[C@@H]3O[C@H]4[C@H](OC[C@H]4O)[C@H]3O)nn2)cc1,SU-DHL10,cytotoxicity,CellTiter-Glo,up to 30 µM,72 h,not toxic
CN1CCCNC(=O)c2cccc(c2)C(=O)NCCCN(C)CCCNc2cccc3c2C(=O)c2cccc(c2C3=O)NCCC1,Ca9-22,cell growth or viability,CCK-8,0.15 µM,48 h,69%
Cc1cc(Cl)cc(-c2ccnc3cc(CN4C(=O)C5C(C4=O)C5(C)C)sc23)c1C[C@@H]1CNCCO1 (stereo partly drawn),CAPAN-1,cell growth or viability,SRB,82.3 nM,5 days,63.9% and 90.9% and 73.6%
O=CCNCCOn1c(=O)n(OCCNCCO)c(=O)n(OCCNCCOn2c(=O)n(OCCNCCO)c(=O)n(OCCNCCO)c2=O)c1=O,HUVEC,cell growth or viability,MTT,25 µg/mL,72 h,21.8%
CC(C)=CCc1c(O)c(CC=C(C)C)c2occ(-c3ccc(O)c(O)c3)c(=O)c2c1O,SW480,cell growth or viability,MTT,100 µg/mL,,97.2%
O=C(c1ccc(C(=O)N2CCC(N3CCCCC3)CC2)cc1)N1CCC(N2CCCCC2)CC1,HEK-293T/17,,CellTiter-Glo,up to 100 µM,24 h,not toxic
COc1cc(OC)c(-c2coc3c4c(cc(O)c3c2=O)OC(C)(C)C=C4)cc1OC,SW480,cell growth or viability,MTT,100 µg/mL,,76.3%
COc1cc(N2CCN(C(=O)CN)CC2)ccc1Nc1ncc(Cl)c(Nc2ccccc2P(C)(C)=O)n1,NCI-H3122,cell growth or viability,CCK-8,25 nM,48 h,66%

# Repeated from above:
SMILES,cell line,effect on,method,tested at,time,viability
[BH3-][P+]1(c2ccccc2)CCCCC1,SW480,,trypan blue,IC50,72 h,96%
O=C(OC[C@@]1(O)C(=O)C=C[C@H]2[C@@H]1[C@H]1C=C[C@@H]2C(=O)[C@]1(O)COC(=O)c1ccccc1)c1ccccc1,SW480,cell growth or viability,MTT,6.25 µg/mL,,89.3%
